Published values from different studies.
Protocols differ between the studies behind these lines. ± marks the error that the study gave.
Chain of UniProt Q70CQ1 (whole entry, looked up): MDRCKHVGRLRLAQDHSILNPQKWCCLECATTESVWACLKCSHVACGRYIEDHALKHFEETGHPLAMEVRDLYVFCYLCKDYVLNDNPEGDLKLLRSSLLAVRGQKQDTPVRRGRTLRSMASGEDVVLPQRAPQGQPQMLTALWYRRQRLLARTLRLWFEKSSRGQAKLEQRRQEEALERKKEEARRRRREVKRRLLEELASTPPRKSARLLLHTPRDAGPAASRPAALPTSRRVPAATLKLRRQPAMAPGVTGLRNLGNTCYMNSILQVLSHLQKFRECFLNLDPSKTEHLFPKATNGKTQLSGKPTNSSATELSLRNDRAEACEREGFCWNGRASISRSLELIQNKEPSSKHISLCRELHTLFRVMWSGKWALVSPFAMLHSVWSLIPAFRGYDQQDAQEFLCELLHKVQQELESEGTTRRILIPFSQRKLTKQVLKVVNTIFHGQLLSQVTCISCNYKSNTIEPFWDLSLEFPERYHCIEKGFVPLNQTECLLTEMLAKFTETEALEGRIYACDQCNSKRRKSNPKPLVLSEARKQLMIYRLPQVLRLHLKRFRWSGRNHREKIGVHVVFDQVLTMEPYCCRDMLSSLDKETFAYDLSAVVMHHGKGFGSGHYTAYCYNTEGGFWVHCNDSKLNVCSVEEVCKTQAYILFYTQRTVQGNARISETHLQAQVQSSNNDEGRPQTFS

NS(=O)(=O)c1ccc(NN=C2C(=O)Nc3ccc(C(=O)O)cc32)cc1
logD (octanol/buffer; 67 µM, pH 7.4): -0.57

COc1cc(N2CCC3(CCN(C)CC3)CC2)ccc1Nc1ncc(Cl)c(Nc2ccccc2P(C)(C)=O)n1
absorption rate constant (population PK model; human; oral, bootstrap median): 1.05 h⁻¹

COc1cc(Nc2ncc3c(n2)-c2ccc(Cl)cc2C(c2c(F)cccc2OC)=NC3)ccc1C(=O)O
patients with adverse event (measured: Pain, all grades; cancer patients, phase 1/2; oral, dose not given, with: pembrolizumab): 17%

Fc1ccc(-c2nc(-c3c(F)cccc3F)[nH]c2-c2ccncc2)cc1
membrane retention (PAMPA; 16 h): 82.9 ± 1.3%

Cc1nc2c(F)cc(-c3nc(Nc4ccc(CN5CCNCC5)cn4)ncc3F)cc2n1C(C)C
intrinsic clearance (human, liver; population PK model estimate): 259 L/h

CNC(=O)c1ccc(-c2cnc3ncc(Cc4ccc5ncccc5c4)n3n2)cc1F
Headache dose reduction/interruption (Japanese patients; oral, 400 mg, any grade): 1%

Clc1cc(Cl)cc([C@@H]2COC[C@]3(CCOc4ccccc43)N2)c1
logD (shake-flask, 1-octanol/buffer; pH 7.4): > 4.7

FC(F)(F)c1ccc(CNc2ccc(Cc3c[nH]c4ncc(Cl)cc34)cn2)cn1
treatment-related adverse events (measured: Diarrhea; patients with advanced solid tumours, non-TGCT cohort; oral, 1000 mg/day, grade 3 or higher): 0%

CNCc1ccc(-c2[nH]c3cc(F)cc4c3c2CCNC4=O)cc1
incidence of any adverse event (human patients; oral, 600 mg twice daily, grade 3): 30.8%

C[C@@H](Oc1ccc(S(C)(=O)=O)cc1C(=O)N1C[C@@H]2C[C@]2(c2cc(C(F)(F)F)on2)C1)C(F)(F)F
%AUC extrapolated (elderly humans, plasma; oral, 25 mg once daily, single dose, geometric mean): 36.2%

Clc1cc(Cl)cc([C@H]2COC[C@H](C3CCCCC3)N2)c1
logD (shake-flask, 1-octanol/buffer; pH 7.4): > 4.7

O=C(Nc1nc2cccc(-c3ccc(CN4CCS(=O)(=O)CC4)cc3)n2n1)C1CC1
treatment-emergent adverse events (measured: cystitis; human rheumatoid arthritis patients; oral, 30 mg once daily, 4 weeks, regardless of relatedness): 0%

COc1ccc2c(c1)CN(C(=O)CCN1CCC(Cc3ccccc3)CC1)CC[S@@+]2[O-]
PQ interval (telemetry; conscious male beagle dogs; intravenous, NG, 2 h): 93 ± 12 ms

C[C@@H](N)C1CCN(S(=O)(=O)c2cccc3cnccc23)CC1
participants with serious TEAEs (healthy volunteers; 150 mg single dose, fed): 0%

C[C@@H](O)[C@H](NC(=O)c1ccc(-c2ccc(Br)cc2)cc1)C(=O)NO
logD (octanol/buffer; pH 7.4): 2.77

COc1cc(C(=O)N2CCC3(CC2)CC(=O)c2c(cnn2C(C)C)C3)cc(-c2ccc(C(=O)O)cc2)n1
LDL cholesterol change from baseline (direct measurement; human, fasting serum; 100 mg once daily, day 13, adjusted geometric mean; relative to: placebo): -8.4%

C=CC(=O)N1CCC[C@@H](n2nc(-c3ccc(Oc4ccccc4)cc3)c3c(N)ncnc32)C1
cysteine adduct formation (PBS; 100 µM, 23 h, pH 8, 37 °C, with: cysteine 10 mM): 96%

CC[C@H](C)CCCCC(=O)N[C@@H](CCN)C(=O)N[C@H](C(=O)N[C@@H](CCN)C(=O)N[C@H]1CCNC(=O)[C@H]([C@@H](C)O)NC(=O)[C@H](CCN)NC(=O)[C@H](CCN)NC(=O)[C@H](CC(C)C)NC(=O)[C@@H](Cc2ccccc2)NC(=O)[C@H](CCN)NC1=O)[C@@H](C)O
cumulative urinary excretion (LC-MS/MS; mild renal insufficiency patients, urine; IV, 0.75 mg/kg, 0-6 h, arithmetic mean): 0.632 mg

C=CC(=O)Nc1cc(Nc2nccc(-c3cn(C)c4ccccc34)n2)c(OC)cc1N(C)CCN(C)C
recovery (storage stability; human dried blood spots; 5 h, -80 °C, LLOQ level): 83.9%

c1ccc2cc3ccccc3cc2c1
log K(PDMS-water) (fresh water; 12 (unit not given), 20 °C, SSP sampler, 100 µm): 3.86 ± 0.01

C=CCNc1nc(C)c(-c2ccnc(Nc3cccc([N+](=O)[O-])c3)n2)s1
logD (octanol/buffer; 67 µM, pH 7.4): > 4.5

CN1CCN(c2cccc(-c3ccc4ncnc(Nc5ccc(Cl)c(C(F)(F)F)c5)c4c3)c2)CC1
CLint (human liver microsomes): < 3 µL/min/mg

O=C(Nc1ccc(OC(F)(F)Cl)cc1)c1cnc(N2CC[C@@H](O)C2)c(-c2ccn[nH]2)c1
grade ≥3 event rate (per treatment cycle, measured: platelet decrease; human patients; oral, dose not given, 28 day cycle, dose-finding study): 2.9%

NC1(C(=O)N[C@@H](CCO)c2ccc(Cl)cc2)CCN(c2nc[nH]c3nccc2-3)CC1
incidence of SIRS (metastatic CRPC patients; 480 mg b.i.d., grade 3 to 4, treatment-related, with: enzalutamide 160 mg daily): 0%

Cc1cc(NC2CCN(C(=O)OC3CCN(C(=O)/C=C/CN(C)C)C3)CC2)n2ncc(C(C)C)c2n1 (stereo not drawn)
patients with Diarrhea (patients with advanced solid tumours; dose not given, QD arm, grade 3 or higher): 5%

O=C(N[C@H](Cc1c[nH]c2ccccc12)C(=O)Nc1ccncc1)c1ccc(-c2ccc(F)c(C(F)(F)F)c2)cc1F
concentration (Swiss Webster mouse, female, fat; oral, 50 mg/kg, 8 h, 20% HPβCD vehicle): 2820 nM

Cn1ncnc1[C@H]1c2n[nH]c(=O)c3cc(F)cc(c23)N[C@@H]1c1ccc(F)cc1
brain concentration ratio (FVB mice, brain; oral, 0.15 mg/kg, 2 h; relative to: Mdr1a/b−/− over wild type): 35 fold

Clc1ccc([C@H]2COC[C@@H](c3cccc(Br)c3)N2)cc1
logD (shake-flask, 1-octanol/buffer; pH 7.4): > 4.7

CCn1c(=O)c(-c2cc(NC(=O)Nc3ccccc3)c(F)cc2Br)cc2cnc(NC)cc21
freeze-thaw stability accuracy (human plasma; 4000 ng/mL, -20 °C, 3 cycles, high QC): 7.2%

C=CC(=O)NC1CCN(c2ncc3ncnc(Nc4ccc(Oc5ccc6c(c5)ncn6C)c(C)c4)c3n2)CC1
participants with skin lesion TEAE (healthy male humans; oral, 240 mg, grade 2): 6.3%

CN(C(=O)C(C)(C)c1cc(C(F)(F)F)cc(C(F)(F)F)c1)c1cnc(N2C[C@H]3COCCN3C[C@H]2CO)cc1-c1ccc(F)cc1[14CH3]
cumulative radioactivity excreted (healthy men, urine and feces; oral, 120 mg, 288 h, with: [14C]-label; relative to: dose): ~88.6%

O=C(O)CNC(=O)c1ccc(C(=O)N2CCC(c3ccc(Cl)cc3)CC2)cn1
Kd (Ubiquitin carboxyl-terminal hydrolase 49, ZnF-UBD domain (USP49, Homo sapiens, UniProt Q70CQ1)): > 1000 µM

C[Si](C)(C)O[Si](C)(C)O[Si](C)(C)C
enthalpy of phase change (1-octanol/water; concentration not given): 0.239 kcal/mol

Cc1ccc(C(=O)N(CCCN)C(c2nc3snc(C)c3c(=O)n2Cc2ccccc2)C(C)C)cc1 (stereo not drawn)
patients with adverse event (mucosal inflammation grade ≥3 (CTCAE); human patients; intravenous, 13 mg/day): 0%

Cc1ccc(Sc2ccccc2N2CCNCC2)c(C)c1
participants with TEAE (measured: Diarrhea; healthy adult men; oral, 20 mg daily, 12 days): 0%

NC/C(=C\F)COc1cccc(Cn2c(=S)[nH]c(=O)c3[nH]cnc32)c1
tissue concentration (C57BL/6J mice, lung; oral, 15 mg/kg single, 6 h): 148 ng/mL

[O]=[Co].[O]=[Co][O][Co]=[O]
cobalt concentration (rat, male, urine, 24-h collection; oral gavage, single, 300 mg/kg (220 mg Co/kg), day 3, vehicle 0.5% HPMC): 307 µg/L

CCOc1c([C@H](C)n2nc(C)c3c(N)ncnc32)cc(Cl)c(F)c1[C@@H]1CNC(=O)C1
ECG observations (measured: QRS ≤100 ms; previously treated B-cell malignancy; oral, 15 mg once daily, baseline below thresholds): 100%

COc1ccc2c(=O)n(C)c(-c3ccccc3)nc2c1
tissue/plasma ratio (Sprague-Dawley rat, male, abdominal fat; oral, 30 mg/kg, 0.25 h; relative to: abdominal fat over plasma): 7.37

NC1(C(=O)N[C@@H](CCO)c2ccc(Cl)cc2)CCN(c2nc[nH]c3nccc2-3)CC1
likelihood of grade >=2 diarrhea (human patients aged >=sample A years; 400 mg): 39.8%

C[C@@H]1CCO[C@H]2Cn3cc(C(=O)NCc4ccc(F)cc4F)c(=O)c(O)c3C(=O)N12
AUC(0-24) (population PK, post-hoc; children, 10 to <14 kg, plasma; oral, 20 mg dispersible tablet, steady state, geometric mean): 66600 ng·h/mL

Cc1cccc([C@H]2N[C@@H](c3ccc4ccccc4c3)COC2(C)C)c1
logD (shake-flask, 1-octanol/buffer; pH 7.4): > 4.7

O=C(O)CN1CCCN2CCN(Cc3ccccc3)CCCN(CC1)Cc1cccc(n1)C2
intact complex (64Cu complex in rat plasma; 12 h, 37 °C): 99%

CC(=O)N/C(=C\c1ccc(Cc2nc3c([nH]2)C(=O)c2ccccc2C3=O)cc1)c1nc2c([nH]1)C(=O)c1ccccc1C2=O
hydrodynamic radius (dynamic light scattering; buffer; 20 µM): 25.6 nm

CC(C)(C(=O)N1CCOc2c(C#N)cncc2C1)C(F)F
subjects with TEAE (measured: vessel puncture site hypoaesthesia; healthy humans, both sexes; oral, 10 mg single dose): 0%

CC[C@H](C)[C@H](NC(=O)[C@H](Cc1ccccc1)NC(=O)[C@H](CCC(=O)O)NC(=O)[C@H](CCCCNC(=O)COCCOCCNC(=O)COCCOCCNC(=O)CC[C@H](NC(=O)CCCCCCCCCCCCCCCCC(=O)O)C(=O)O)NC(=O)[C@H](C)NC(=O)[C@H](C)NC(=O)[C@H](CCC(N)=O)NC(=O)CNC(=O)[C@H](CCC(=O)O)NC(=O)[C@H](CC(C)C)NC(=O)[C@H](Cc1ccc(O)cc1)NC(=O)[C@H](CO)NC(=O)[C@H](CO)NC(=O)[C@@H](NC(=O)[C@H](CC(=O)O)NC(=O)[C@H](CO)NC(=O)[C@@H](NC(=O)[C@H](Cc1ccccc1)NC(=O)[C@@H](NC(=O)CNC(=O)[C@H](CCC(=O)O)NC(=O)C(C)(C)NC(=O)[C@@H](N)Cc1cnc[nH]1)[C@@H](C)O)[C@@H](C)O)C(C)C)C(=O)N[C@@H](C)C(=O)N[C@@H](Cc1c[nH]c2ccccc12)C(=O)N[C@@H](CC(C)C)C(=O)N[C@H](C(=O)N[C@@H](CCCNC(=N)N)C(=O)NCC(=O)N[C@@H](CCCNC(=N)N)C(=O)NCC(=O)O)C(C)C
subjects with moderate AEs (Caucasian subjects; 0.5 mg): 25%

CN(C(=O)n1cnc(-c2cccnc2)c1)C1CCCCC1
concentration (Wistar rat, medulla oblongata; oral, 10 mg/kg/day of BIA 10-2474, 24 h, repeated 5 days): 7.3 ± 0.2 ng/g

CCN1/C(=C/C(C)=O)Sc2ccc(F)cc21
PR interval (cynomolgus monkey; oral, 100 mg/kg, 4 h post-dose): 92 ± 4 ms

CN1C(=O)[C@@H](NC(=O)c2nnc(Cc3ccccc3)[nH]2)COc2cccnc21
participants with any serious TEAE (phase I single ascending dose; human, male and female; oral, 30 mg, fasted): 0%

Cc1ccc([C@@H]2O[C@H](CO)[C@@H](O)[C@H](O)[C@H]2O)cc1Cc1ccc(-c2ccc(F)cc2)s1
urinary calcium excretion change (Japanese type 2 diabetes patients; 200 mg, day 3, 24 h urine collection; relative to: baseline): -30.1 mg

CC[C@@]1(O)C(=O)OCc2c1cc1n(c2=O)Cc2cc3c(CN(C)C)c(O)ccc3nc2-1
cumulative urinary recovery (patients; intravenous, dose not given, 24 h, day 2): 105 ± 16.7%

CCOC(=O)N1C[C@@H](c2ccc(F)c(C#N)c2)N[C@@H](c2ccc(C(=O)OC)cc2)C1
logD (shake-flask, 1-octanol/buffer; pH 7.4): > 4.7

Cc1cc(C)c(CNC(=O)c2cc(Cl)c3c(c2C)O[C@@](C)([C@H]2CC[C@H](N(C)C)CC2)O3)c(=O)[nH]1
grade ≥3 TEAE incidence (viral enterocolitis, CTCAE v4.0; human, relapsed/refractory NHL; oral, 200 mg once daily, overall, onset after cycle 1 day 1): 4.2%

Cn1cnc2c(F)c(Nc3ccc(Br)cc3Cl)c(C(=O)NOCCO)cc21
absorption lag time (population PK model; human, plasma; oral, zero-order absorption model, fed): 0.62 h

CC(C)c1nc(N(C)S(C)(=O)=O)nc(-c2ccc(F)cc2)c1/C=C/[C@@H](O)C[C@@H](O)CC(=O)O
efflux ratio (EpiIntestinal microtissues; 5 µM, 2 h, no inhibitor): 10.3

Cc1cc(-c2nccc3c2ccn3CC(=O)Nc2ccc(-c3cnccn3)cn2)ccn1
musculoskeletal disorders (human; 20 mg once daily, multiple ascending dose): 0%

Cc1cn([C@H]2C[C@H](N=[N+]=[N-])[C@@H](CO)O2)c(=O)[nH]c1=O
CC50 (human cells, human): > 10 µM
